Results of several laboratories.
Lines come from different studies, so protocols differ.
Target: Serine/threonine-protein kinase 10 (STK10, Homo sapiens, UniProt O94804)
Chain of UniProt O94804 (whole entry, looked up): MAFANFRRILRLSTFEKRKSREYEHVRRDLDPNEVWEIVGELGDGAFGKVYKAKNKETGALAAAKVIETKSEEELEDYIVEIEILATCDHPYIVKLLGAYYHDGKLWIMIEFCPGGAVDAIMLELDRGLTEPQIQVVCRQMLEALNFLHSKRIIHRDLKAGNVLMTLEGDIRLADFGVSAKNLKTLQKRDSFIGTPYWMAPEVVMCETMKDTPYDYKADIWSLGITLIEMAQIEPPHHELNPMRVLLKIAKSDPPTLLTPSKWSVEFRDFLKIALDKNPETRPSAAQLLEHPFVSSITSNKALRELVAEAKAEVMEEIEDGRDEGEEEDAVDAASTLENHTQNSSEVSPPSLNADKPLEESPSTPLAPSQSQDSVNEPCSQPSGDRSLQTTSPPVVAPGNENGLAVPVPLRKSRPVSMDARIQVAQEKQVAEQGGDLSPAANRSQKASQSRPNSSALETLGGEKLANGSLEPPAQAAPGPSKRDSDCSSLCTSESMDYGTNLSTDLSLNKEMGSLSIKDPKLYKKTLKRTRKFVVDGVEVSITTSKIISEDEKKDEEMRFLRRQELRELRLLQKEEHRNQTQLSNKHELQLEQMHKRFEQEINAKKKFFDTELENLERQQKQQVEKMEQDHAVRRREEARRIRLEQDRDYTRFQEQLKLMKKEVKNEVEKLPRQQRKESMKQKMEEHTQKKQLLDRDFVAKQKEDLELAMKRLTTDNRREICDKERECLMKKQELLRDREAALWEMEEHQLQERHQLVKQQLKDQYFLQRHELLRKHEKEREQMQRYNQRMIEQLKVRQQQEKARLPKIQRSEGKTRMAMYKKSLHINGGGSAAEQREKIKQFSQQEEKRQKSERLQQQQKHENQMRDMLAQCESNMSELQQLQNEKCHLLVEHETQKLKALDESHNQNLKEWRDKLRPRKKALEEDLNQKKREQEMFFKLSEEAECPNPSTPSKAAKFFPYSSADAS

CCCOc1ccc(OC)c(F)c1C(=O)c1ccc(C(=O)N[C@@H]2CNC[C@H]2NC(=O)c2ccc3[nH]ncc3c2)cc1 gave a remaining activity of 64% (enzyme activity; 10 µM).
The remaining binding of C=CC(=O)N1CCC(COCC(=O)N2CCN(c3nc(-c4cnc(N)nc4C(F)F)nc(N4CCOC[C@@H]4C)n3)CC2)CC1 is reported as 100% (KINOMEscan; 1 µM; reference: DMSO control).
C[C@@H](c1ccc(-n2cnc3c(N)ncnc32)cc1)N1CCc2nn(C)c(Cc3ccccc3)c2C1=O gave a remaining binding of 23% (KINOMEscan; 0.1 µM; reference: DMSO control).
C=CC(=O)N1CCC(C(=O)NCC(=O)N2CCN(c3nc(-c4cnc(N)nc4C(F)F)nc(N4CCOCC4)n3)CC2)CC1 gave a remaining binding of 95% (KINOMEscan; 1 µM).
For Cc1cc(Nc2cc(N3CCN(C)CC3)nc(Sc3ccc(NC(=O)C4CC4)cc3)n2)[nH]n1, the remaining activity was 97% (kinase activity, KinaseProfiler; 0.03 µM, species human; reference: control).
For CCN(CC)c1ccc(C2=NNC(=O)CC2C)cc1[N+](=O)[O-] (stereo not drawn), the remaining activity was 92% (enzyme activity, inhibitor; 10 µM; reference: vehicle).
For COc1cc(F)ccc1-c1ncnc(Nc2cccc(C[S@](C)(=N)=O)c2)n1, the remaining activity was 37% (kinase activity; 10 µM, together with: 10 µM ATP).
For C1=C/COCc2cc(ccc2OCCN2CCCC2)Nc2nccc(n2)-c2cccc(c2)COC/1, the binding was 89% (concentration not given, kinase construct LOK; reference: control).
O=C(NC1CCC1)c1ccc2nc(-c3cccc(NS(=O)(=O)NCCN4CCCCC4)c3)cn2c1 gave a remaining activity of 100% (enzyme activity; 10 µM).

A few entries again:
The remaining binding of C=CC(=O)N1CCC(COCC(=O)N2CCN(c3nc(-c4cnc(N)nc4C(F)F)nc(N4CCOC[C@@H]4C)n3)CC2)CC1 is reported as 100% (KINOMEscan; 1 µM; reference: DMSO control).
